Experimental data pooled from the literature.
A part holds a random share of what one study measured. Changes are numbered by the printed parent chain.

Block 1 — technique: universal PBM; molecule type: double-stranded DNA, one strand shown; sample: in vitro; tested at: 600 nM; reading: higher = stronger binding; endpoint: E-score
Target: Sal-like protein 4, full length isoform A (SALL4, Homo sapiens, UniProt Q9UJQ4, residues 1-1053)
UniProt Q9UJQ4, sequence (whole entry, looked up): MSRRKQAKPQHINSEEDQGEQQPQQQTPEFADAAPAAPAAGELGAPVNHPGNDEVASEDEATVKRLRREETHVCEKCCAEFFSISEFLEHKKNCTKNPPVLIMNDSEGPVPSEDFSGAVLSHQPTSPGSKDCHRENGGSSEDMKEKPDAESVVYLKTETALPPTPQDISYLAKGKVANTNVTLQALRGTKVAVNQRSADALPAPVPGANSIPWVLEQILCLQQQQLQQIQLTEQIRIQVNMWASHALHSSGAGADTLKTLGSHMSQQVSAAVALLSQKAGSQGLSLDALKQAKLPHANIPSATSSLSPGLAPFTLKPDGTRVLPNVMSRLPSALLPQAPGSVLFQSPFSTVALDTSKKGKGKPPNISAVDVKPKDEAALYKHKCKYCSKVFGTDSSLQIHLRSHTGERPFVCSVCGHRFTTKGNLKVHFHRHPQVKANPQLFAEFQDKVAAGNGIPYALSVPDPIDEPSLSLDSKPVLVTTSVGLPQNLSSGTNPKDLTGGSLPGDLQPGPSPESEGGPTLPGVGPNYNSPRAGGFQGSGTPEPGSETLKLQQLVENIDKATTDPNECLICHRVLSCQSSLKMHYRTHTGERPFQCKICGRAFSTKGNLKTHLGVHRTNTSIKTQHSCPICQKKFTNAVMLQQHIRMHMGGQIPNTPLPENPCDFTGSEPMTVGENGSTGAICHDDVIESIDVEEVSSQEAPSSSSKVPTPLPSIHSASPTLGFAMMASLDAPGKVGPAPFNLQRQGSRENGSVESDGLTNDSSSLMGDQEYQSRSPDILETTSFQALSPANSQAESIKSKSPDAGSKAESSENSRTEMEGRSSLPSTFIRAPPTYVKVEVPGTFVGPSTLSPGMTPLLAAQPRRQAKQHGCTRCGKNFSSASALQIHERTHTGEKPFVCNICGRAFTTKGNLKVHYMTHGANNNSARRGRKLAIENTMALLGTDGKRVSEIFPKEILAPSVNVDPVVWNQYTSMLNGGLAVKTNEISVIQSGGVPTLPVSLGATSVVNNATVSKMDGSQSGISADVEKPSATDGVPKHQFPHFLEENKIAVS
Notes: 8-mer, flanks averaged, mean of replicates
CATAATAG: 0.348
GATCCAAC: -0.115
TCTCTCCA: -0.118
CCGAGAAG: -0.178
AAGGTCAG: -0.147
ATGCAACG: -0.00894
GAGATCTA: 0.0704
ACTGGCGG: -0.127

Block 2 — technique: aptamer microarray, sandwich; molecule type: DNA with 2'F-ANA; sample: in vitro; tested at: 200 nM; with: Cy3 exosite-II aptamer, 400 nM; reading: higher = stronger binding; endpoint: mean fluorescence intensity; strand: GGTTGGTGTGGTTGG
Target: Prothrombin, mature alpha-thrombin (F2, Homo sapiens, UniProt P00734)
Notes: whole 15-mer aptamer, many near background
2'F-ANA at 6 10 11 13 15: 128 a.u.
2'F-ANA at 1 2 3 4 5 6 9 10: 51 a.u.
2'F-ANA at 2 4 7 10 11 14 15: 62.7 a.u.
2'F-ANA at 1 5 6 8 10 11: 67.1 a.u.
2'F-ANA at 1 3 4 6 12 15: 382 a.u.
2'F-ANA at 3 4 5 6 10 11 15: 53.4 a.u.
2'F-ANA at 2 3 5 6 7 10 11 12 13 15: 75.6 a.u.
2'F-ANA at 1 2 3 4 8 9 12 14 15: 89.4 a.u.

Block 3 — target: CCNB1, cyclin fold, Cln2 fusion (human); technique: yeast growth competition, sequencing; sample: yeast; notes: weak parent motif; baseline: not given; reading: higher = stronger binding; endpoint: normalised enrichment score; starting sequence: viral docking peptide; CKVKRKLFGSENI
CKVKRKLLGSENI [F8L]: 0.236
CKVKRALFGSENI [K6A]: 0.576
CKVKRKLFGSANI [E11A]: 0.646
CKVKRKLFASENI [G9A]: 1.31
CKVARKLFGSENI [K4A]: 1.21
CKVKKKLFGSENI [R5K]: -0.00453
CKVKAKAFGSENI [R5A L7A]: 0.203
CKAKRKLFGSENI [V3A]: -0.0604
CKVKAKLFGSENI [R5A]: 1.17
CKVKRKAFGSENI [L7A]: 0.766

Other studies, line by line
COc1cc(N[C@@H]2CCCC[C@]2(O)C(F)(F)F)ccc1F — inhibition (Sodium-dependent serotonin transporter (SLC6A4, Homo sapiens, UniProt P31645); ligand displacement; 10 µM): 15.6%
